Assay results gathered from unrelated publications.
Numbered parts are unrelated; each lists some results of a single study.
UniProt P04049, sequence (whole entry, looked up): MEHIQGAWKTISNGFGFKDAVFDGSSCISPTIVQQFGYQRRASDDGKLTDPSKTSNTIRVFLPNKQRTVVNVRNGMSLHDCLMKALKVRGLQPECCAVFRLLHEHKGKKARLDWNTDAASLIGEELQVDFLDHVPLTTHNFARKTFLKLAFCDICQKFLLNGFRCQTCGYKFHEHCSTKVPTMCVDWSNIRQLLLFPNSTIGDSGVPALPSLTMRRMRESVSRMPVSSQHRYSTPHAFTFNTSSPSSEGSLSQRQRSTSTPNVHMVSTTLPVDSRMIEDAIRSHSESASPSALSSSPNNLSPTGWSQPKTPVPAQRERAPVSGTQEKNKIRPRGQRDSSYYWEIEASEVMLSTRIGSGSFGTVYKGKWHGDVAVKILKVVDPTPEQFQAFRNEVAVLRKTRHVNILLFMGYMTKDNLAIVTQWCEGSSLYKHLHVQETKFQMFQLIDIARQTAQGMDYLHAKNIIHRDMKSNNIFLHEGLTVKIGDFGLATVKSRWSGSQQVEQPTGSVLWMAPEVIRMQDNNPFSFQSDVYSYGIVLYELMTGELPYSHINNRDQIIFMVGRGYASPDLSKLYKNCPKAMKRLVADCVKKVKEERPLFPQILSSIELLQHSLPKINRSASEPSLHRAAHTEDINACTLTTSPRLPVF
UniProt P10721, sequence (whole entry, unmodified, looked up): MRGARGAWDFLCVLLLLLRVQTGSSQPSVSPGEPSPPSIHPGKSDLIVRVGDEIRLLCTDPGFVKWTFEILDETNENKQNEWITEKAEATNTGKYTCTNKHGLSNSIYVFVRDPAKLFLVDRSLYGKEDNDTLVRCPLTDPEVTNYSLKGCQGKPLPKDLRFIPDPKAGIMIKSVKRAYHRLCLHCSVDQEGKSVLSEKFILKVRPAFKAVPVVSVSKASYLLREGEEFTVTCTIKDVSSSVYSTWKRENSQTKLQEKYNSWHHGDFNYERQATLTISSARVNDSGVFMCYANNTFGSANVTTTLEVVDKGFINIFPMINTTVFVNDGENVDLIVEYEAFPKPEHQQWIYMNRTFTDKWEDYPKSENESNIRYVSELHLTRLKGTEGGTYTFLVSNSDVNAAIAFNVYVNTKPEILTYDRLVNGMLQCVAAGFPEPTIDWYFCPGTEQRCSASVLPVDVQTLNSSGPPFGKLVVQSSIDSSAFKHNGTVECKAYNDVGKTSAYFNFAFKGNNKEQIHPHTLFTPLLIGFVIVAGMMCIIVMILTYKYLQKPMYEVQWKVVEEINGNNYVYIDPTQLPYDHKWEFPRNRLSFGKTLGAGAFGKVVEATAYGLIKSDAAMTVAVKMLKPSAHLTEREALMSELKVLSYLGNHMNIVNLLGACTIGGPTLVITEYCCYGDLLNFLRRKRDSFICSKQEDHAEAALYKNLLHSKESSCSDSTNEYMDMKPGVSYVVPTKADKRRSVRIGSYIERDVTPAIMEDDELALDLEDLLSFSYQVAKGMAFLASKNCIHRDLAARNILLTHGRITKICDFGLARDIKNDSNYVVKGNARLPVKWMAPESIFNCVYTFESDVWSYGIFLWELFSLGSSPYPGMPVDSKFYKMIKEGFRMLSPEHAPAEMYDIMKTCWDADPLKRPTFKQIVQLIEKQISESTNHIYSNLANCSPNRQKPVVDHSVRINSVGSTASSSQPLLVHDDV
UniProt Q16512, sequence (whole entry, looked up): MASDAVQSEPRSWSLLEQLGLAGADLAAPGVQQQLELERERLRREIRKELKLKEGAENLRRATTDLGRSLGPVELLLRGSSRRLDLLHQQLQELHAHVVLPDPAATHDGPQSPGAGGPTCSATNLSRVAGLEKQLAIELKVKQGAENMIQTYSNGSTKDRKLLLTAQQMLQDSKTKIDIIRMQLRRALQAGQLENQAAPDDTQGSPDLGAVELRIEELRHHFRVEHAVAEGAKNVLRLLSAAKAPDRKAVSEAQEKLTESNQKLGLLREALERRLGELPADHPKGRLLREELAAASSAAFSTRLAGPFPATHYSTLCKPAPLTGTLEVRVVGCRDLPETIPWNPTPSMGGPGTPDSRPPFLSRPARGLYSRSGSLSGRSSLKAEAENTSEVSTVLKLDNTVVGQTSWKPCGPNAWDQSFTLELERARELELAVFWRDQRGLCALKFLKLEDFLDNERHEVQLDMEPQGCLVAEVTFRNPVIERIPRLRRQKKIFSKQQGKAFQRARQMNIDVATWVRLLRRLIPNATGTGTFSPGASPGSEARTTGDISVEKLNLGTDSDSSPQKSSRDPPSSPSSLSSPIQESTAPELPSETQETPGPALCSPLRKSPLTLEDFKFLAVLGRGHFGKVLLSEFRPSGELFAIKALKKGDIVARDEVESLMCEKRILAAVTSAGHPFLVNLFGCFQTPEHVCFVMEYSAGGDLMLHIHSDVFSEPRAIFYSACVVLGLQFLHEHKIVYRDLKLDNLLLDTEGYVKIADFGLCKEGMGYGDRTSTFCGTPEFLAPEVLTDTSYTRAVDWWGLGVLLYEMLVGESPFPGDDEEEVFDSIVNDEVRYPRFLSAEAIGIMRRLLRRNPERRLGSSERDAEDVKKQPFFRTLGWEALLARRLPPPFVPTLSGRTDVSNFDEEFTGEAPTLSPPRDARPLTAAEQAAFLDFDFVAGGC
UniProt Q8TDC3, sequence (whole entry, looked up): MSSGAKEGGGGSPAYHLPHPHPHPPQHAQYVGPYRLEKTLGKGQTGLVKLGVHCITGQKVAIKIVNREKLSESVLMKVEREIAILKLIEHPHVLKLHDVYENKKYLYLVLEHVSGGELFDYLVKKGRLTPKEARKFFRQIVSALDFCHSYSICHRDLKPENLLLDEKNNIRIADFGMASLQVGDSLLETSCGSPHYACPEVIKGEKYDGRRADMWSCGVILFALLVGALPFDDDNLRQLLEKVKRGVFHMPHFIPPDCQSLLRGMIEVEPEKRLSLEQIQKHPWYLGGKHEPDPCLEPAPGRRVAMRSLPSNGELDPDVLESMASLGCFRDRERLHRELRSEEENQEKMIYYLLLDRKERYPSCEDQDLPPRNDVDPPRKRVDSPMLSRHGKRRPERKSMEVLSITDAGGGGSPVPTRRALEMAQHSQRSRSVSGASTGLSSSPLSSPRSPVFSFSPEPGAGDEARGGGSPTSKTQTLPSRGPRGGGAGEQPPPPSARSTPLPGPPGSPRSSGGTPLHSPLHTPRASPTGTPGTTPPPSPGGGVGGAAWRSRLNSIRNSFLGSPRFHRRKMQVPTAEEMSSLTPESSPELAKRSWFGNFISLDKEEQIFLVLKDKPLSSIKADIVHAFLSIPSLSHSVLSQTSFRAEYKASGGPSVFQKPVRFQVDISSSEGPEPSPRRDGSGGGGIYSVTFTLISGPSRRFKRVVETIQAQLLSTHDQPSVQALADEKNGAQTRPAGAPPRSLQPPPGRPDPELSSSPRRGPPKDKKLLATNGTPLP
UniProt Q9NRH2, sequence (whole entry, looked up): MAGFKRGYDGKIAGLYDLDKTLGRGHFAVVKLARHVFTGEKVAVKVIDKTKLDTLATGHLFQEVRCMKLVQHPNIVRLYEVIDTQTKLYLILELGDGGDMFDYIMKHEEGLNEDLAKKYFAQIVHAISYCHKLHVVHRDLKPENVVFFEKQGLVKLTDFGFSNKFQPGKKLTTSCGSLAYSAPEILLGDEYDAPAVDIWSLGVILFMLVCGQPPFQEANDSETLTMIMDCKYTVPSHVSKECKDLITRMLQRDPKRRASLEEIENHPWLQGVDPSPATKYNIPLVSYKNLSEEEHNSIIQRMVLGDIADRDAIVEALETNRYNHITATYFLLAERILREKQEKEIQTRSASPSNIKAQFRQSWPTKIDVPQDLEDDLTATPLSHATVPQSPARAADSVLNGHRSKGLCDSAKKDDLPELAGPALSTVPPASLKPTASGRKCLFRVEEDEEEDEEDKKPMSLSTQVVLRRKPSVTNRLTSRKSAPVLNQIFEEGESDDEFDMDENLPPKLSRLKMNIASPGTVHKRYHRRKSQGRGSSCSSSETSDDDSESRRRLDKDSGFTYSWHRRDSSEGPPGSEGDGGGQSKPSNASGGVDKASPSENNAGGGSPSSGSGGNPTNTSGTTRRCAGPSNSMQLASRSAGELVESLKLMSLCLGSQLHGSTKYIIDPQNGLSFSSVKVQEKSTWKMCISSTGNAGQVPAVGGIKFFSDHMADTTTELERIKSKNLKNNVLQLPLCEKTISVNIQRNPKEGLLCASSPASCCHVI
UniProt Q9HAZ1, sequence (whole entry, looked up): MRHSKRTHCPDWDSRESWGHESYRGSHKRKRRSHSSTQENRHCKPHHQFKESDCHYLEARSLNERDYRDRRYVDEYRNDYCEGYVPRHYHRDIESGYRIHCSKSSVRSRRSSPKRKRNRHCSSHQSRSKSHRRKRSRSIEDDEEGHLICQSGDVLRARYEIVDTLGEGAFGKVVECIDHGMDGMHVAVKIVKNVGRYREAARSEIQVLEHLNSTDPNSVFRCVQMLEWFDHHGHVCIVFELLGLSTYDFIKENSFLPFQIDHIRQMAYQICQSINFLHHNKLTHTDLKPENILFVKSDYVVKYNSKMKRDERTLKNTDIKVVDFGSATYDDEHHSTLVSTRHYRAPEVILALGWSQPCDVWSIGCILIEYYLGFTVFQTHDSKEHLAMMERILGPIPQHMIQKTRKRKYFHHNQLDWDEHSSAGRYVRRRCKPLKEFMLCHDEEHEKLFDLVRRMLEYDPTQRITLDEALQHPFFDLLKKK

Study 1 — effect on: cell-free assay; method: competition with immobilised ligand; concentration: 1 µM
SMILES: CC1=C(C#N)[C@@H](c2ccc3[nH]nc(C)c3c2)C(C#N)=C(c2ccc(Cl)cc2)N1
target	remaining binding
Mast/stem cell growth factor receptor Kit (KIT, Homo sapiens, UniProt P10721, V559D/V654A)	100%
Serine/threonine-protein kinase BRSK1 (BRSK1, Homo sapiens, UniProt Q8TDC3)	100%
SNF-related serine/threonine-protein kinase (SNRK, Homo sapiens, UniProt Q9NRH2)	100%
RAF proto-oncogene serine/threonine-protein kinase (RAF1, Homo sapiens, UniProt P04049)	100%
Non-receptor tyrosine-protein kinase TNK1 (TNK1, Homo sapiens, UniProt Q13470)	65%
Serine/threonine-protein kinase LATS2 (LATS2, Homo sapiens, UniProt Q9NRM7)	100%
1-phosphatidylinositol 3-phosphate 5-kinase (PIKFYVE, Homo sapiens, UniProt Q9Y2I7)	100%
Mitogen-activated protein kinase kinase kinase kinase 5 (MAP4K5, Homo sapiens, UniProt Q9Y4K4)	54%
Phosphatidylinositol 4,5-bisphosphate 3-kinase catalytic subunit alpha isoform (PIK3CA, Homo sapiens, UniProt P42336, H1047Y)	35.8%
Epidermal growth factor receptor (EGFR, Homo sapiens, UniProt P00533, L861Q)	100%
Phosphatidylinositol 4-phosphate 3-kinase C2 domain-containing subunit beta (PIK3C2B, Homo sapiens, UniProt O00750)	100%
Serine/threonine-protein kinase N1 (PKN1, Homo sapiens, UniProt Q16512)	91.4%
Mast/stem cell growth factor receptor Kit (KIT, Homo sapiens, UniProt P10721, D816V)	100%
Receptor-interacting serine/threonine-protein kinase 1 (RIPK1, Homo sapiens, UniProt Q13546)	94.6%
Ephrin type-B receptor 1 (EPHB1, Homo sapiens, UniProt P54762)	100%
TRAF2 and NCK-interacting protein kinase (TNIK, Homo sapiens, UniProt Q9UKE5)	100%
Ribosomal protein S6 kinase alpha-3, N-terminal kinase domain (RPS6KA3, Homo sapiens, UniProt P51812)	78.1%
Dual specificity protein kinase CLK4 (CLK4, Homo sapiens, UniProt Q9HAZ1)	100%
Epithelial discoidin domain-containing receptor 1 (DDR1, Homo sapiens, UniProt Q08345)	84.5%

Study 2 — cell line: A-375; concentration: 100 µM; time: 36 h
SMILES	viability
C[C@]12CCC(=O)C=C1[C@@H]1C[C@@H]1[C@H]1[C@@H]3[C@@H]4C[C@@H]4[C@@]4(CCC(=O)O4)[C@@]3(C)CC[C@@H]12	45.5%
CCOC(=O)O[C@]1(C(=O)OCCl)CC[C@H]2[C@@H]3CCC4=CC(=O)C=C[C@]4(C)[C@H]3[C@@H](O)C[C@@]21C	64.8%
CS(=O)(=O)c1ccc([C@@H](O)[C@@H](CO)NC(=O)C(Cl)Cl)cc1	106%
Cc1ncc([N+](=O)[O-])n1CC(O)CCl (stereo not shown)	105%
O=C(c1ccccc1)c1ccc2n1CCC2C(=O)O (stereo not shown)	39.7%
CCOc1ccc2nc3cc(N)ccc3c(N)c2c1	0.545%
CN(C)CCn1nnnc1SCC1=C(C(=O)O)N2C(=O)[C@@H](NC(=O)Cc3csc(N)n3)[C@H]2SC1	115%
C[C@@H]1[C@H](O)[C@@H](C)/C=C/C=C/C=C/C=C/C=C/C=C/C=C/[C@H](O[C@@H]2O[C@H](C)[C@@H](O)[C@H](N)[C@@H]2O)C[C@@H]2O[C@](O)(C[C@@H](O)C[C@@H](O)[C@H](O)CC[C@@H](O)C[C@@H](O)CC(=O)O[C@H]1C)C[C@H](O)[C@H]2C(=O)O	102%
COc1cc2c(N3CCN(C(=O)Nc4ccc(OC(C)C)cc4)CC3)ncnc2cc1OCCCN1CCCCC1	4.58%

Study 3 — effect on: enzyme activity; action: inhibitor; concentration: 0.5 µM; baseline: control
Target: RAF proto-oncogene serine/threonine-protein kinase (RAF1, Homo sapiens, UniProt P04049)
SMILES	remaining activity
O=C(c1ccccc1)c1ccc(N2CCOCC2)cc1O	95.9%
CCCCc1c(-c2ccc(O)cc2)[nH]c2nccnc12	106%
C[C@@H](N)[C@H]1CC[C@H](C(=O)Nc2ccncc2)CC1	103%
O=C(O)/C=C/c1cc(Br)c(Br)c(Br)c1Br	91.3%
CC(C)n1cnc2c(Nc3cccc(Cl)c3)nc(NCCO)nc21	105%
Nc1nc(Nc2ccc(S(N)(=O)=O)cc2)nn1C(=S)Nc1c(F)cccc1F	110%
CC(C)N(CCC(=O)c1ccc2ccccc2c1)Cc1ccccc1	87.3%
Clc1ccc(Nc2nnc(Cc3ccncc3)c3ccccc23)cc1	93.3%
FC(F)(F)c1ccc(/C=C/c2nc(COc3ccc(CCCCn4ccnn4)cc3)co2)cc1	97.1%
O=C1c2ccccc2-c2nc3nnnn3nc21	76.1%
CC(C)(C)c1nc2c3cc[nH]c(=O)c3c3cc(F)ccc3c2[nH]1	134%
N#CC(c1ccnc(NCCc2cccnc2)n1)c1nc2ccccc2s1 (stereo not shown)	84%
NC(=O)c1ccc(-c2nc(-c3ccc4c(c3)OCCO4)c(-c3ccccn3)[nH]2)cc1	91.7%
O=C1NC(=O)/C(=C/c2ccc3c(c2)OC(F)(F)O3)S1	95.5%
c1cc(-c2cnn3cc(-c4ccc(OCCN5CCCCC5)cc4)cnc23)ccn1	102%
CCN(CC)CCCCN1c2ccccc2Oc2ccc(Cl)cc21	105%
O=c1c(-c2ccc(F)cc2)c(-c2ccncc2)[nH]n1-c1ccc(Cl)cc1	61.4%
O=Nc1c(-c2c(O)[nH]c3ccccc23)[nH]c2ccccc12	99.3%
COc1cc2c(Nc3ccc(Br)cc3F)ncnc2cc1OCC1CCN(C)CC1	81.1%
CNc1cc2c(Nc3cccc(Br)c3)ncnc2cn1	87.8%
NC(=O)c1cccc(-c2cc(Nc3ccc(OC(F)(F)F)cc3)ncn2)c1	105%

Study 4 — method: KINOMEscan; concentration: 10 µM; baseline: DMSO control; reading: lower = stronger binding
Structure (SMILES): COc1cc(C(=O)N2CCC(N3CCN(C)CC3)CC2)ccc1Nc1ncc2c(n1)N(C)c1ccccc1C(=O)N2C
target	binding [%]
AURKC	50
SRPK1	94
DMPK	100
ROCK1	100
DRAK2	93
FES	84
EPHA5	95
EPHA4	89
NEK3	100
NLK	50
CDK8	100
PAK3	83
EPHA7	97
PHKG2	33
CAMK1D	69

For quick reference, copied from above (study 3):
SMILES	remaining activity
NC(=O)c1ccc(-c2nc(-c3ccc4c(c3)OCCO4)c(-c3ccccn3)[nH]2)cc1	91.7%
O=C1NC(=O)/C(=C/c2ccc3c(c2)OC(F)(F)O3)S1	95.5%
c1cc(-c2cnn3cc(-c4ccc(OCCN5CCCCC5)cc4)cnc23)ccn1	102%
CCN(CC)CCCCN1c2ccccc2Oc2ccc(Cl)cc21	105%
O=c1c(-c2ccc(F)cc2)c(-c2ccncc2)[nH]n1-c1ccc(Cl)cc1	61.4%
O=Nc1c(-c2c(O)[nH]c3ccccc23)[nH]c2ccccc12	99.3%
COc1cc2c(Nc3ccc(Br)cc3F)ncnc2cc1OCC1CCN(C)CC1	81.1%
CNc1cc2c(Nc3cccc(Br)c3)ncnc2cn1	87.8%
NC(=O)c1cccc(-c2cc(Nc3ccc(OC(F)(F)F)cc3)ncn2)c1	105%
